Published values of several laboratories.
Each numbered part is a random draw from the data of one study; scales do not carry over between parts.

Block 1
Target: Ras GTPase-activating protein-binding protein 1, full length (G3BP1, Homo sapiens, UniProt Q13283)
Chain of UniProt Q13283 (whole entry, looked up): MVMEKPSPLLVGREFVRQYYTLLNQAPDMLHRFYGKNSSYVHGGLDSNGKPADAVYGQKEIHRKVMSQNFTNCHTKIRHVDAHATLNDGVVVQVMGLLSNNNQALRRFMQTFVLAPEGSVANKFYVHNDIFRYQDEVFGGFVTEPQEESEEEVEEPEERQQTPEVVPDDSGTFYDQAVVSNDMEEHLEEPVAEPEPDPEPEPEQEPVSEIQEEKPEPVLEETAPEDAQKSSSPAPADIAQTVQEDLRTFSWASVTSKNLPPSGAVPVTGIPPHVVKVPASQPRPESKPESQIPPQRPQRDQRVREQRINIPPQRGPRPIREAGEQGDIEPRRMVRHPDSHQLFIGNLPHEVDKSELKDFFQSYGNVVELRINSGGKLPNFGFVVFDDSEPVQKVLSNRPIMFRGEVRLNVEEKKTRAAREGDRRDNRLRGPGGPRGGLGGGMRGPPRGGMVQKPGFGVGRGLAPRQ
Method: RNA Bind-n-Seq
Molecule type: RNA
Medium: in vitro
Tested at: 200 nM
Notes: whole 134-nt RNA, ends assumed
Added: 150 mM LiCl
Baseline: input library
Direction: higher = stronger binding
Measurement: log2 enrichment
Each molecule: 7-deaza-guanosine replaces G
Shared flanks, not repeated: GGGAGUUCUACAGUCCGACGAUC … UGGAAUUCUCGGGUGUCAAGG
UGGGAGGUGGAUUUUGUUUAUUUUUUUAGCUCAUUUCCAGGGGUGGGAAUUUUUUUUCAAUAUGUGUCAUGAAUAAAGUUGUUUUUGAAA: -0.108
GUCCUGUGCUACACAUCGUAUGUACCGAAUCGGGGCCCCCGGCCCCCGGGGCCCCCGGGAAAGUAUUAUGUUACGCCGUUCGGAUCUGCA: -2.25
UGGGAGGUGGAUUUUGUUUAUUUUUUUAGCUCAUUUCCAGGGGUGGGAAUUUUUUUUUAAUAUGUGUCAUGAAUAAAGUUGUUUUUGUAA: -0.00587
UGGCCCUGGUGGCAUGCGGGGAGGAAGAGGUGGCCUCAUGGAUCGUGGUGGUCCCGGUGGAAUGUUCAGAGGUGGCCGUGAUGGAGACAG: -0.218
UAACUUUAGAGGAGGAUCUGAUGGAUAUGGCAGUGGACGUGGAUUUGGGGAUGACUAUAAUGGGUAUGGAGGAGGACCUGGAGGUGGCAA: -0.025
UCCUGUGCUACACAUCGUAUGUACCGAAUCGGGGAAAAAAAGGGGUUUUUGGGGUGGGGAAAGUAUUAUGUUACGCCGUUCGGAUCUGCA: 0.221
CUCAAGUCCUGUGCUACACAUCGUAUGUACCGAAUCGGUGGAGGAAAAAAAGGAAAGUAUUAUGUUACGCCGUUCGGAUCUGCACUUCCA: -0.27
UCAAGUCCUGUGCUACACAUCGUAUGUACCGAAUCGGUUUGGUUUGGUUUGGGGAAAGUAUUAUGUUACGCCGUUCGGAUCUGCACUUCC: -0.245

Block 2
Target: Replicase polyprotein 1ab, polymerase (rep, Severe acute respiratory syndrome coronavirus 2, UniProt P0DTD1)
Read-out: enzyme activity
Action: inhibitor
Tested at: 20 µM
Measurement: inhibition
CC(=O)c1cc([N+](=O)[O-])c(Sc2ccc(F)cc2F)s1: -0.8%
CS(=O)(=O)OCCCCOS(C)(=O)=O: 5.94%
CC(C)(O)c1coc(S(=O)(=O)NC(=O)Nc2c3c(cc4c2CCC4)CCC3)c1: 4.88%
C[C@H](Cc1cc2c(c(C(N)=O)c1)N(CCCO)CC2)NCCOc1ccccc1OCC(F)(F)F: 0.1%
CCCCCS(=O)(=O)CCCCCCCCCCn1c(-c2ccc(O)cc2)c(C)c2cc(O)ccc21: 1.14%
CC[C@H](C)[C@@H]1NC(=O)[C@H](Cc2ccc(O)cc2)NC(=O)[C@@H](N)CSSC[C@@H](C(=O)N2CCC[C@H]2C(=O)N[C@@H](CC(C)C)C(=O)NCC(N)=O)NC(=O)[C@H](CC(N)=O)NC(=O)[C@H](CCC(N)=O)NC1=O: -0.48%
Cc1c(F)cc(C(=O)NC2CC2)cc1-c1ccc(C(=O)NCC(C)(C)C)cn1: -1.73%
CN(C)C/C=C/C(=O)Nc1ccc(C(=O)Nc2cccc(Nc3ncc(Cl)c(-c4c[nH]c5ccccc45)n3)c2)cc1: 11.9%
O=C(O)C1CCCN(CCC=C(c2ccccc2)c2ccccc2)C1 (stereo not shown): 36.1%
CN1CCN(C(=O)C2C(C(=O)O)[C@H]3CC[C@@H]2O3)CC1 (stereo partly shown): -2.16%
Clc1ccc(CCCOCCCN2CCCCC2)cc1: -1.44%
O=C1N=C(NCc2cccs2)S/C1=C\c1ccc2ncccc2c1: -0.11%
C=CC(=O)Nc1cccc(Oc2nc(Nc3ccc(N4CCN(C)CC4)cc3)ncc2Cl)c1: -1.12%
Oc1ccc2c3c1O[C@H]1c4[nH]c5c(c4C[C@@]4(O)[C@@H](C2)N(CC2CC2)CC[C@]314)C[C@@]1(O)[C@H]2Cc3ccc(O)c4c3[C@@]1(CCN2CC1CC1)[C@H]5O4: -3.36%
C=CC[C@]1(O)CC[C@H]2[C@@H]3CCC4=CC(=O)CCC4=C3C=C[C@@]21C: -5.59%
Cc1nc2cnc3ccc(C#Cc4cccnc4)cc3c2n1-c1ccc(C(C)(C)C#N)cc1: 0.87%
CC(=O)O[C@]1(C(C)=O)CC[C@H]2[C@@H]3C=C(Cl)C4=CC(=O)CC[C@]4(C)[C@H]3CC[C@@]21C: -3.06%
O=C(NCNC(=O)NC1C(=O)NC(=O)N1CO)NC1C(=O)NC(=O)N1CO (stereo not shown): 1.21%
NS(=O)(=O)OC[C@@H]1C[C@@H](n2ccc3c(N[C@H]4CCc5ccccc54)ncnc32)C[C@@H]1O: -3.44%
O=C(Nc1ccc(-c2ccncc2)cc1)N[C@H](CO)c1ccccc1: -3.84%
C#Cc1cccc(Nc2ncnc3cc(OC)c(OCCCCCCC(=O)NO)cc23)c1: -4.37%
c1ccc([C@@H]2C[C@H]2NC2CCNCC2)cc1: -4.09%
CCCCCCCCCCCCCCCCCCCCCCCCCCCCO: -5.25%

Block 3
Cell line: HEK-293T
Read-out: pseudovirus infection
Method: FDA-approved drug library screen
Organism: VSV pseudotyped with SARS-CoV-2 spike
Tested at: 10 µM
Time: 16 h
Baseline: vehicle-treated
Measurement: GFP-positive cells
CNCC[C@@H](Oc1ccccc1C)c1ccccc1: 52.4%
NC[C@H]1O[C@H](O[C@H]2[C@H](O)[C@@H](O[C@H]3O[C@H](CO)[C@@H](O)[C@H](N)[C@H]3O)[C@H](N)C[C@@H]2N)[C@H](O)[C@@H](O)[C@@H]1O: 81%
Oc1c(Cl)cc(Cl)c2cccnc12: 74.2%
NCC(CC(=O)O)c1ccc(Cl)cc1 (stereo not shown): 91.6%

Block 4
Target: Centromere-binding protein 1, full length, His-tagged (CBF1, Saccharomyces cerevisiae, UniProt P17106, residues 1-351)
Chain of UniProt P17106 (whole entry, looked up): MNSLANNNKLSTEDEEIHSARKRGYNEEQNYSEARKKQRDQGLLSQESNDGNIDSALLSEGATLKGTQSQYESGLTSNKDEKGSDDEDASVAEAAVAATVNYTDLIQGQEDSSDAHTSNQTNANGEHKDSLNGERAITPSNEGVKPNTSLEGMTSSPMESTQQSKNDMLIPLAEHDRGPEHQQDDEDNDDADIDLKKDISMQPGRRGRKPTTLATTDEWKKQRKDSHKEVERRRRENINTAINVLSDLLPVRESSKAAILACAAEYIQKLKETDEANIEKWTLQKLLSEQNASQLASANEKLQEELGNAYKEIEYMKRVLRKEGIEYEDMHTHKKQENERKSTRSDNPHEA
Method: competition protein-binding microarray
Molecule type: double-stranded DNA, one strand shown
Medium: in vitro
Tested at: 2 µM
Notes: whole 60-bp probe, lowest competitor level
Added: Pho4 competitor, 0.05 µM
Direction: higher = stronger binding
Measurement: fluorescence intensity
Shared flanks, not repeated: … GTCTTGATTCGCTTGACGCTGCTG
CGCCCTTCCTTACGGTAGATGATGACACACTAAACG: 60.8 a.u.
CATACCCAACCTTTTCACGTGCTCTAAGATATTTGT: 1690 a.u.
ACTATTAATATATTTTCATATAATTAGTATAATCTC: 92.5 a.u.
AAGCGAGGCGCAGATCTCGTGGTGAGTGATATAGTG: 138 a.u.
CTTCTGTAAATTTGGAGGGTGGGTGGACGCGCCCCG: 73.6 a.u.
TTATCTGTTTTAATTGGCGTGGGTAAGTGGGGTAGG: 75 a.u.
AGCTGGCAGAACCTCCATGTGCTCCAGGTCTCTGAT: 69.7 a.u.
AAATTACTAAGTTGCTTTGTGGGTGACGCCGTATGA: 73.5 a.u.

Block 5
Target: Replicase polyprotein 1ab, main protease (rep, Severe acute respiratory syndrome coronavirus 2, UniProt P0DTD1)
Read-out: enzyme activity
Action: inhibitor
Tested at: 20 µM
Notes: hit confirmation, with DTT
Measurement: inhibition
COC(=O)CC[C@H](NC(=O)[C@H](CC(=O)OC)NC(=O)OCc1ccccc1)C(=O)N[C@H](C(=O)N[C@@H](CC(=O)OC)C(=O)CF)C(C)C: 99.1%
CC(CN1CC(=O)NC(=O)C1)N1CC(=O)NC(=O)C1 (stereo not shown): 9.8%
O=C1C(Cl)=C(Cl)C(=O)C(Cl)=C1Cl: 99.5%

Some of these lines once more (block 2):
CC(=O)O[C@]1(C(C)=O)CC[C@H]2[C@@H]3C=C(Cl)C4=CC(=O)CC[C@]4(C)[C@H]3CC[C@@]21C: -3.06%
O=C(O)C1CCCN(CCC=C(c2ccccc2)c2ccccc2)C1 (stereo not shown): 36.1%
CC(C)(O)c1coc(S(=O)(=O)NC(=O)Nc2c3c(cc4c2CCC4)CCC3)c1: 4.88%
Oc1ccc2c3c1O[C@H]1c4[nH]c5c(c4C[C@@]4(O)[C@@H](C2)N(CC2CC2)CC[C@]314)C[C@@]1(O)[C@H]2Cc3ccc(O)c4c3[C@@]1(CCN2CC1CC1)[C@H]5O4: -3.36%
C[C@H](Cc1cc2c(c(C(N)=O)c1)N(CCCO)CC2)NCCOc1ccccc1OCC(F)(F)F: 0.1%
Clc1ccc(CCCOCCCN2CCCCC2)cc1: -1.44%
Cc1nc2cnc3ccc(C#Cc4cccnc4)cc3c2n1-c1ccc(C(C)(C)C#N)cc1: 0.87%
